Experimental data collected from several papers.
Every numbered part comes from another study and shows a few of its results, in no order.
UniProt P00519, sequence (whole entry, unmodified, looked up): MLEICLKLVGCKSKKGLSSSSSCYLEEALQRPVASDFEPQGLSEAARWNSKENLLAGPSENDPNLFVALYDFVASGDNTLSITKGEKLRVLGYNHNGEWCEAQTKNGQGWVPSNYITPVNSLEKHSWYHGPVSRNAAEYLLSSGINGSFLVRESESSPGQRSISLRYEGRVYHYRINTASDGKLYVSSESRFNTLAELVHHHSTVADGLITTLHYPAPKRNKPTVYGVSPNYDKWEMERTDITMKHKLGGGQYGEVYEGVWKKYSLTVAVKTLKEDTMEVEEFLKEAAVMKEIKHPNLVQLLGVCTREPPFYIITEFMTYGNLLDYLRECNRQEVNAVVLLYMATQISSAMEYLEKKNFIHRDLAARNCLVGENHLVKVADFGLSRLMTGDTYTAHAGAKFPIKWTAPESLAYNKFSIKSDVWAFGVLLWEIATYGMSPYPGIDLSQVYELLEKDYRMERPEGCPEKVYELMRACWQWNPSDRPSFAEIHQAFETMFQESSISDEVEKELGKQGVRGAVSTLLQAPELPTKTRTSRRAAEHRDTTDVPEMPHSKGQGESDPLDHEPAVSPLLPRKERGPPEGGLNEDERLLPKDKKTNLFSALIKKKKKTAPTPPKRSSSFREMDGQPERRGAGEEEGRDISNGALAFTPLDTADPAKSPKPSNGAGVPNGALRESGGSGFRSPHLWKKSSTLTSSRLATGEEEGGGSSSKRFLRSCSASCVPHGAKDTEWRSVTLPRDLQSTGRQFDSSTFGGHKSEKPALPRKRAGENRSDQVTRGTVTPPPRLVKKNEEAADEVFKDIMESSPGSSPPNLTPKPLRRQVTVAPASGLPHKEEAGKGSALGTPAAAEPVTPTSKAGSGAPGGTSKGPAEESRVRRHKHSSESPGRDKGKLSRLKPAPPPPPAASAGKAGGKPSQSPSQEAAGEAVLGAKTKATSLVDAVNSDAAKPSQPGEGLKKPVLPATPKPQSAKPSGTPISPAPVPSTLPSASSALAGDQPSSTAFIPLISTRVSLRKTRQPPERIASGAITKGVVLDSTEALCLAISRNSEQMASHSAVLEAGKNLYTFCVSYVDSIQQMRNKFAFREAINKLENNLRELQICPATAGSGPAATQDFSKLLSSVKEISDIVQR
UniProt Q52WX2, sequence (whole entry, looked up): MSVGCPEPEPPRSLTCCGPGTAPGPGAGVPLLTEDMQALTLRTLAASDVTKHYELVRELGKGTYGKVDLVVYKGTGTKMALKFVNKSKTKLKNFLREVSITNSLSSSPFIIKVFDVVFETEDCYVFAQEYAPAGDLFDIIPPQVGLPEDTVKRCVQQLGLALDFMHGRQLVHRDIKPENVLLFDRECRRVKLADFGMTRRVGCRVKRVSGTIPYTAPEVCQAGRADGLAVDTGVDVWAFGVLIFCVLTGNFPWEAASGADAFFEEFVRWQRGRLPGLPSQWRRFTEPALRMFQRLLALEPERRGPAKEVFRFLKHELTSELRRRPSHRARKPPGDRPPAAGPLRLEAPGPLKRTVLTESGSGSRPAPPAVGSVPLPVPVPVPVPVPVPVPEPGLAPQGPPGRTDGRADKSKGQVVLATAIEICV
UniProt Q12866, sequence (whole entry, looked up): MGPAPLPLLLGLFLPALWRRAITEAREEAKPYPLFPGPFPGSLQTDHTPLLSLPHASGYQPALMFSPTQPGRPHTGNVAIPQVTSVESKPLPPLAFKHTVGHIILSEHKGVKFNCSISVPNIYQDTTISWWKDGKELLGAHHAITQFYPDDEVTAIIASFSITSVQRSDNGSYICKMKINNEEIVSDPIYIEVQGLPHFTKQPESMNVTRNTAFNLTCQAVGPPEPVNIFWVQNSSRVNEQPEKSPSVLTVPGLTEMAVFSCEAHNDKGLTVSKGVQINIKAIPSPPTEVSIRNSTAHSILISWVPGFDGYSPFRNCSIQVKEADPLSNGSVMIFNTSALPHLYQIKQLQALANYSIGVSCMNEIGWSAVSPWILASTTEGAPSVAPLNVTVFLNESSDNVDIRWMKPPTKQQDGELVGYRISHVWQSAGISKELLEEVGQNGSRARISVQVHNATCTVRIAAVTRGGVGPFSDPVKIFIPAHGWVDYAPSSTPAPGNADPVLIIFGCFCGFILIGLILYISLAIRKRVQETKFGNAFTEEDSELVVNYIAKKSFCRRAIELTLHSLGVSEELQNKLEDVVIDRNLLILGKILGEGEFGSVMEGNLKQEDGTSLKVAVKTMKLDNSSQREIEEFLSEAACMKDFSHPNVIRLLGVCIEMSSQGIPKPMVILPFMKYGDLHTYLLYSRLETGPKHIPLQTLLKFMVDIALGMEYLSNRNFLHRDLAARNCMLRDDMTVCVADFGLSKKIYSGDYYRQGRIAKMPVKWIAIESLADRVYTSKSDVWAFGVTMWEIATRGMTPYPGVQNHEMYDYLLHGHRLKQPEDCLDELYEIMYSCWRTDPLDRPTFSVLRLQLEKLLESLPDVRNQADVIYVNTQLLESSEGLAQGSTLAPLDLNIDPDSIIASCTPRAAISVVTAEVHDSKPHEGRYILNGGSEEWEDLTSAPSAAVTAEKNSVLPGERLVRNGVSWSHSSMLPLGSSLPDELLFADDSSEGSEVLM
UniProt Q13873, sequence (whole entry, looked up): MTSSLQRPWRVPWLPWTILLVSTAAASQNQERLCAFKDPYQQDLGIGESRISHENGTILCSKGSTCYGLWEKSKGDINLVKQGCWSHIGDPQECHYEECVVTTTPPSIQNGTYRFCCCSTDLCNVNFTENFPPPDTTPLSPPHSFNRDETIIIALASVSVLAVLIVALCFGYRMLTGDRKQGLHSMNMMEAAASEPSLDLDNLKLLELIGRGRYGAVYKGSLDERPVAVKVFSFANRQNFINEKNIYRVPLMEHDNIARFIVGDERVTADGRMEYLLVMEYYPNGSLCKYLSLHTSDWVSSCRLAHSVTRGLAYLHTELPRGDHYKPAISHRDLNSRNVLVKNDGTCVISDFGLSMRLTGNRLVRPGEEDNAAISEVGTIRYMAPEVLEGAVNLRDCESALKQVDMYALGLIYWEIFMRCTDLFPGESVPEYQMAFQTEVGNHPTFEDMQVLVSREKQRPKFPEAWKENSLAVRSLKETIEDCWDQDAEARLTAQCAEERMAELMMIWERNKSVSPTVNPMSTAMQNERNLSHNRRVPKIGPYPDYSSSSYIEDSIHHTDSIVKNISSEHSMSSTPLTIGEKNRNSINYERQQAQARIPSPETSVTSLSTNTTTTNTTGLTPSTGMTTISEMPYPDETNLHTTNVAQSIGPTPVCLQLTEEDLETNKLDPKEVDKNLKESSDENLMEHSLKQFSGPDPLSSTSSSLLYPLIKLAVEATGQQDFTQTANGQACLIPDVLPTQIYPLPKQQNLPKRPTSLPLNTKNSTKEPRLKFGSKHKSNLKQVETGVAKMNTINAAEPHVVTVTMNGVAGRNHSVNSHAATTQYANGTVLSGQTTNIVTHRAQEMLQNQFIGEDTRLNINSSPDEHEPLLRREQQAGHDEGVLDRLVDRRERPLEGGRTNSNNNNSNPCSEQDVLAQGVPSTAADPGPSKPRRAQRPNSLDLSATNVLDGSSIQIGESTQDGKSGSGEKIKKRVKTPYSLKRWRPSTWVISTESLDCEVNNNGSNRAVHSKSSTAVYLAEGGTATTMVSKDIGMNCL
UniProt P22607, sequence (whole entry, looked up): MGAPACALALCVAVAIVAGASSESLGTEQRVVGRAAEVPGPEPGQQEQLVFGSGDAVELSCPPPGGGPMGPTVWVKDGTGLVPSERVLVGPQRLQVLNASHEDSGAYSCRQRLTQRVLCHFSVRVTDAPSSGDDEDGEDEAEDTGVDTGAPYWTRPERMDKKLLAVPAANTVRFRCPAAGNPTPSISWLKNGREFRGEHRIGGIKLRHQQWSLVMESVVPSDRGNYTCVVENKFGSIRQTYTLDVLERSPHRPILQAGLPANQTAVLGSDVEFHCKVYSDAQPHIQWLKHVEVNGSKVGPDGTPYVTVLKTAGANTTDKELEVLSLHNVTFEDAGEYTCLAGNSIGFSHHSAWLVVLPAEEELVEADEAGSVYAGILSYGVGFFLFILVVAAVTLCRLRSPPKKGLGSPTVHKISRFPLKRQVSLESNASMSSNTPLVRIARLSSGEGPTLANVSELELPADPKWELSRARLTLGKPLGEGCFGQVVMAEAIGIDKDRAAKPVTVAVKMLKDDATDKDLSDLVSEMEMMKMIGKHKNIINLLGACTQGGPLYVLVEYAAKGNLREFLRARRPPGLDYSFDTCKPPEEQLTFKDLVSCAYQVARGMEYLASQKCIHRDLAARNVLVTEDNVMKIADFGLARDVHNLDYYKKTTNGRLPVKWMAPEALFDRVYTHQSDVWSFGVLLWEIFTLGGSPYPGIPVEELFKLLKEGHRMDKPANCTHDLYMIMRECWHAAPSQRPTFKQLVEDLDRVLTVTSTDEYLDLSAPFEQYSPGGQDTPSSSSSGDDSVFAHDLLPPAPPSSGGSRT
UniProt Q13976, sequence (whole entry, looked up): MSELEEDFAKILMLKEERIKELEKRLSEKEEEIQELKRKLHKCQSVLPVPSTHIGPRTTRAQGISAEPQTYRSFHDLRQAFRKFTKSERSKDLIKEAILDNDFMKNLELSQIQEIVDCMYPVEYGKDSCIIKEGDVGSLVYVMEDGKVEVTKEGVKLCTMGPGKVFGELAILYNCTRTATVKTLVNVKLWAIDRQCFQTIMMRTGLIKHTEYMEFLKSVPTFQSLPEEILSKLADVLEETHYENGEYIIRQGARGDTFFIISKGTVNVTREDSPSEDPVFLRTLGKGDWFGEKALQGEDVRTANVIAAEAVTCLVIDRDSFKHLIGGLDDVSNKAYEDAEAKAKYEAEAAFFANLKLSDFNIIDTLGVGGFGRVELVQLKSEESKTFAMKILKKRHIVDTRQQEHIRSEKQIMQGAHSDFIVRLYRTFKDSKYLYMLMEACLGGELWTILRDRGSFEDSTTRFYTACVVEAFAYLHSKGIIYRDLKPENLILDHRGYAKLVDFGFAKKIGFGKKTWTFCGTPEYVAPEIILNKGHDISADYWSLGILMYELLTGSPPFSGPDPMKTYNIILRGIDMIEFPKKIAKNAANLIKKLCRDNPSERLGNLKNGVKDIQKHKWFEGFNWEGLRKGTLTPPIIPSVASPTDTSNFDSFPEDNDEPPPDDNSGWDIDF

Set 1 — SMILES: CNc1cc2c(Nc3cccc(Br)c3)ncnc2cn1; effect on: enzyme activity; action: inhibitor; tested at: 0.5 µM; reference: control; measurement: remaining activity
TAOK2 (Homo sapiens, UniProt Q9UL54): 95.3%
NEK1 (Homo sapiens, UniProt Q96PY6): 70.3%
ULK2 (Homo sapiens, UniProt Q8IYT8): 119%
ABL2 (Homo sapiens, UniProt P42684): 84.8%
FGFR1 (Homo sapiens, UniProt P11362): 96.5%
CSNK1G3 (Homo sapiens, UniProt Q9Y6M4): 86.3%
ACVR1B (Homo sapiens, UniProt P36896): 97.7%
LCK (Homo sapiens, UniProt P06239): 96.7%
MERTK (Homo sapiens, UniProt Q12866): 87.5%
GRK7 (Homo sapiens, UniProt Q8WTQ7): 83.8%
FGFR3 (Homo sapiens, UniProt P22607): 85.4%
MAPKAPK2 (Homo sapiens, UniProt P49137): 99.6%
MAP2K2 (Homo sapiens, UniProt P36507): 90.4%
NEK6 (Homo sapiens, UniProt Q9HC98): 89.8%

Set 2 — effect on: cell-free assay; technique: competition with immobilised ligand; tested at: 1 µM; measurement: remaining binding
Compound: CS(=O)(=O)NCC[C@H](NC(=O)c1cncc2c1cnn2-c1ccc(F)cc1)c1ccnc(S(C)(=O)=O)c1
MET (Homo sapiens, UniProt P08581, M1250T): 88%
BMP2K (Homo sapiens, UniProt Q9NSY1): 92%
Tyrosine-protein kinase ABL1, non-phosphorylated (ABL1, Homo sapiens, UniProt P00519, F317L): 100%
PIK3CA (Homo sapiens, UniProt P42336, E542K): 66%
STK16 (Homo sapiens, UniProt O75716): 99%
EGFR (Homo sapiens, UniProt P00533, del747-750/T751S): 100%
HASPIN (Homo sapiens, UniProt Q8TF76): 100%

Set 3 — effect on: kinase activity; action: inhibitor; tested at: 1 µM; measurement: remaining activity
Compound: CC(C)S(=O)(=O)c1ccc2nccc(Nc3ccc4sc(C5CCCC5)nc4c3)c2c1.Cl
TAOK1 (Homo sapiens, UniProt Q7L7X3): 96%
LYN (Homo sapiens, UniProt P07948): 101%
SBK1 (Homo sapiens, UniProt Q52WX2): 97%
BMPR2 (Homo sapiens, UniProt Q13873): 105%
MAPK13 (Homo sapiens, UniProt O15264): 98%
TGFBR1 (Homo sapiens, UniProt P36897): 87%
AAK1 (Homo sapiens, UniProt Q2M2I8): 99%
CDKL3 (Homo sapiens, UniProt Q8IVW4): 72%
STK38L (Homo sapiens, UniProt Q9Y2H1): 100%

Set 4 — effect on: cell-free assay; tested at: 1 µM; measurement: remaining signal
SMILES: C[C@H]1CC[C@H](n2c3cnccc3c3cnc(Nc4ccc5c(n4)CCN(C(=O)CO)C5)nc32)CC1
EGFR (Homo sapiens, UniProt P00533, G719S): 91%
RIPK1 (Homo sapiens, UniProt Q13546): 97%
PRKG1 (Homo sapiens, UniProt Q13976): 100%
MAP3K9 (Homo sapiens, UniProt P80192): 68%
SRPK2 (Homo sapiens, UniProt P78362): 100%
ABL1 (Homo sapiens, UniProt P00519, F317I): 89%

Excerpt of the above (set 1):
ACVR1B (Homo sapiens, UniProt P36896): 97.7%
MAPKAPK2 (Homo sapiens, UniProt P49137): 99.6%
FGFR1 (Homo sapiens, UniProt P11362): 96.5%
